Published values from different studies.
Each line is one published result; not all experiments were run side by side. ± gives the spread as reported.
UCHL1: Ubiquitin carboxyl-terminal hydrolase isozyme L1 (UCHL1, Homo sapiens, UniProt P09936)
Sequence of UniProt P09936 (whole entry, looked up): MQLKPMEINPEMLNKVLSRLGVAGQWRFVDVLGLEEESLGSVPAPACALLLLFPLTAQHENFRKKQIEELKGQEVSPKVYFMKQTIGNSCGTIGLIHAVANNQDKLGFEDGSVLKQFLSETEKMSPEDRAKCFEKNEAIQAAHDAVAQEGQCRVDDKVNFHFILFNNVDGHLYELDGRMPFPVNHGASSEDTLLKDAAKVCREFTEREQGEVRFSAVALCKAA

SMILES | target or system | assay | system | setting | how to read | endpoint | result
CCn1cc(-c2cc(Cn3ccoc3=N)cc3c2CCN([C@@H](C)c2cc(OC)ccn2)C3=O)c(C(F)(F)F)n1 | COLO-668 | cell growth, inhibitor |  | 120 h |  | EC50 | 10.9 µM
N#Cc1ccc(C[C@H](NC(=O)c2cc3ccccc3[nH]2)C(=O)N2CCc3ccccc32)cc1 | human neutrophils | calcium mobilization, agonist |  |  |  | EC50 | > 50 µM
O=C(Nc1ccc(-c2ccccc2)cc1)[C@H]1O[C@H](O[C@@H]2[C@@H](OCc3ccc4ccccc4c3)[C@H](O[C@H]3O[C@H](CNS(=O)(=O)O)[C@@H](OCc4ccc5ccccc5c4)C[C@H]3NS(=O)(=O)O)[C@@H](NS(=O)(=O)O)C[C@H]2NS(=O)(=O)O)[C@H](OCc2ccc3ccccc3c2)[C@@H](NS(=O)(=O)O)[C@@H]1OCc1ccc2ccccc2c1 | MCF-10A | cytotoxicity |  | 48 h |  | EC50 | 51.6 ± 1.87 µM
CCOc1ccc(N(C)S(=O)(=O)c2cc(Cl)sc2C(=O)Nc2ccc3c(c2)C(=O)NC3=O)cc1OC | CCF-STTG1 | reporter gene, activator, refers to: ABCA1 promoter luciferase |  | 24 h |  | EC50 | 1.6 µM
N#Cc1ccc(C[C@H](Nc2nnc(-c3cccc(F)c3)s2)C(=O)N2CCc3ccccc32)cc1 | human neutrophils | calcium mobilization, agonist |  |  |  | EC50 | 41.4 ± 6.8 µM
N.N.O=C([O-])C1(C(=O)[O-])CCC1.[Pt+2] | OVCAR4 compound-resistant | cell viability |  |  |  | EC50 | 233 µM
CCOC(=O)c1cc(Cl)cc(NC(=O)c2sc(Cl)cc2S(=O)(=O)N(C)c2ccc(OCC)c(OC)c2)c1 | CCF-STTG1 | reporter gene, activator, refers to: ABCA1 promoter luciferase |  | 24 h |  | EC50 | 0.1 µM
Cc1cccc(-c2nnc(N[C@@H](Cc3ccc(C#N)cc3)C(=O)N3CCc4ccccc43)o2)c1 | human neutrophils | calcium mobilization, agonist |  |  |  | EC50 | 36 ± 10.5 µM
CC[C@H](C)[C@H](NC(=O)[C@H](CCCNC(=N)N)NC(=O)[C@H](CCCNC(=N)N)NC(=O)[C@H](CC(C)C)NC(=O)CNC(=O)[C@H](CCC(N)=O)NC(=O)[C@@H](NC(=O)[C@@H](NC(=O)[C@H](Cc1c[nH]c2ccccc12)NC(=O)[C@@H](NC(=O)[C@H](CCC(=O)O)NC(=O)[C@@H]1CCCN1C(=O)[C@@H](N)CCCNC(=N)N)[C@@H](C)CC)[C@@H](C)CC)[C@@H](C)O)C(=O)NCC(=O)N[C@@H](CC(=O)O)C(=O)N[C@@H](CCC(=O)O)C(=O)N[C@@H](Cc1ccccc1)C(=O)N[C@@H](CC(N)=O)C(=O)N[C@@H](C)C(=O)N[C@@H](Cc1ccc(O)cc1)C(=O)N[C@@H](Cc1ccc(O)cc1)C(=O)N[C@@H](C)C(=O)N[C@@H](CCCNC(=N)N)C(N)=O | MDA-MB-231, Bcl-xL-dependent | mitochondrial depolarization, BH3 profiling with JC-1 |  | 3 h |  | EC50 | 18 ± 11 µM
N#Cc1ccc(C[C@H](Nc2ncc(-c3ccc(F)cc3)o2)C(=O)N2CCc3ccccc32)cc1 | human neutrophils | calcium mobilization, agonist |  |  |  | EC50 | > 50 µM
COc1cnc2cccc(N3CCc4c(cc(Cn5ccnc5C)cc4-c4cn(C)nc4C(F)(F)F)C3=O)c2c1 | SK-LU-1 | cell growth, inhibitor |  | 120 h |  | EC50 | > 30 µM
CCOC(=O)c1cccc(NC(=O)c2sc(Cl)cc2S(=O)(=O)N(C)c2ccc(N(C)C)cc2)c1 | CCF-STTG1 | reporter gene, activator, refers to: ABCA1 promoter luciferase |  | 24 h |  | EC50 | 5 µM
C[C@]12CCCN1CC1=NNC(=O)c3cc(F)cc4[nH]c2c1c34 | BGC-823 gastric cancer cells | cell viability |  | concentration not given, together with: with temozolomide |  | EC50 | > 10 µM
CCOC(=O)c1cc(F)cc(NC(=O)c2sc(Cl)cc2S(=O)(=O)N(C)c2ccc(OCC)c(OC)c2)c1 | CCF-STTG1 | reporter gene, activator, refers to: ABCA1 promoter luciferase |  | 24 h |  | EC50 | 0.03 µM
N#Cc1ccc(C[C@@H](NC(=O)c2cc3ccc(F)cc3[nH]2)C(=O)N2CCc3ccccc32)cc1 | human neutrophils | calcium mobilization, agonist |  |  |  | EC50 | > 50 µM
CN1CCc2c(sc3c2c(=O)n(-c2ccccc2)c2nnc(SCc4ccccc4)n32)C1 | Trypanosoma cruzi | reporter translation, Renilla luciferase mRNA translation | cell-free extract | 40 µM | reference: DMSO | inhibition | 1.6%
C#CC(=O)N1CCC(N2CCN(Cc3ccc(C)cc3)C2=O)C1 (centres unmarked) | UCHL1 | covalent, intact protein LC-MS |  | 12.5 µM |  | labelling | 10.9%
N#Cc1ccc(C[C@H](Nc2nnc(-c3cccc(Br)c3)o2)C(=O)N2CCc3ccccc32)cc1 | human neutrophils | calcium mobilization, agonist |  |  |  | EC50 | 35.9 ± 9.7 µM
C=C1C(=O)O[C@H]2[C@H]1CC/C(C)=C/CC[C@@]1(C)O[C@@H]21 | MYBPC3 mutant iPSC-derived cardiomyocytes | refers to: MYH |  | 24 h |  | EC50 | inactive
CCOc1ccc(N(C)S(=O)(=O)c2ccsc2C(=O)Nc2cccc(C(=O)OC)c2)cc1 | CCF-STTG1 | reporter gene, activator, refers to: ABCA1 promoter luciferase |  | 24 h |  | EC50 | 4 µM
CCn1cc(-c2cc(Cn3ccnc3)cc3c2CCN([C@H](c2cc(OC)ccn2)C2CC2)C3=O)c(C(F)(F)F)n1 | FaDu | cell growth, inhibitor |  | 120 h |  | EC50 | > 30 µM
CCOc1ccc(N(C)S(=O)(=O)c2cc(Cl)sc2C(=O)Nc2cc(Cl)cc(C(=O)OCCOCCOC)c2)cc1OC | CCF-STTG1 | ABCA1 promoter reporter, activator, luciferase reporter |  |  |  | EC50 | 0.138 µM
N#Cc1ccc(C[C@@H](Nc2c(Nc3ccc(Br)cc3)c(=O)c2=O)C(=O)N2CCc3ccccc32)cc1 | human neutrophils | calcium mobilization, agonist |  |  |  | EC50 | > 50 µM
CCOC(=O)c1cccc(NC(=O)c2sc(Cl)cc2S(=O)(=O)N(C)c2ccc(OCC)c(OCC)c2)c1 | CCF-STTG1 | reporter gene, activator, refers to: ABCA1 promoter luciferase |  | 24 h |  | EC50 | 0.82 µM
N#Cc1ccc(C[C@@H](NC(=O)c2cc3cc(F)ccc3[nH]2)C(=O)N2CCc3ccccc32)cc1 | human neutrophils | calcium mobilization, agonist |  |  |  | EC50 | > 50 µM
CCCNC(=O)[C@H]1O[C@@H]1C(=O)N[C@H](C(=O)N1CCC[C@H]1C(=O)OC)[C@@H](C)CC | MCF-10A | cell viability, MTT |  | concentration not given, 72 h, irradiated 15 min up to 470 nm |  | EC50 | 49 ± 0.5 µM
C[C@H]1CNCCN1c1nccc(-c2noc3c2CCC[C@@]32CCCc3sc(N)c(C#N)c32)n1 | Ba/F3 (NRAS dependent) | cell growth |  | 72 h, without IL-3 |  | EC50 | 1.58 µM
CCOc1ccc(N(C)S(=O)(=O)c2cc(Cl)sc2C(=O)Nc2cc(Cl)cc(C(=O)OCCOC)c2)cc1OC | CCF-STTG1 | reporter gene, activator, refers to: ABCA1 promoter luciferase |  | 24 h |  | EC50 | 0.07 µM
N#CC(=Cc1ccc(F)c(F)c1)C(=O)NC1CCCCC1 | UCHL1 | covalent, intact protein LC-MS |  | 12.5 µM |  | labelling | 9.89%
